Measured values of several laboratories.
Each line is one published result; not all experiments were run side by side.
Technique: steady-state kinetics
B1: asnB (Escherichia coli, UniProt P22106); chain CSIFGVFDIKTDAVELRKKALELSRLMRHRGPDWSGIYASDNAILAHERLSIVDVNAGAQPLYNQQKTHVLAVNGEIYNHQALRAEYGDRYQFQTGSDCEVILALYQEKGPEFLDDLQGMFAFALYDSEKDAYLIGRDHLGIIPLYMGYDEHGQLYVASEMKALVPVCRTIKEFPAGSYLWSQDGEIRSYYHRDWFDYDAVKDNVTDKNELRQALEDSVKSHLMSDVPYGVLLSGGLDSSIISAITKKYAARRVEDQERSEAWWPQLHSFAVGLPGSPDLKAAQEVANHLGTVHHEIHFTVQEGLDAIRDVIYHIETYDVTTIRASTPMYLMSRKIKAMGIKMVLSGEGSDEVFGGYLYFHKAPNAKELHEETVRKLLALHMYDCARANKAMSAWGVEARVPFLDKKFLDVAMRINPQDKMCGNGKMEKHILRECFEAYLPASVAWRQKEQFSDGVGYSWIDTLKEVAAQQVSDQQLETARFRFPYNTPTSKEAYLYREIFEELFPLPSAAECVPGGPSVACSSAKAIEWDEAFKKMDDPSGRAVGVHQSAYK
B2: enzyme (Brachypodium distachyon, UniProt I1IPY7); chain MEQGKAALGWAARDASGHLSPYNFSRRVQKDDDVTIKVLFCGICHTDLHIIKNEWGNALYPIVPGHEVVGVVTDVGPGVKNFKAGETVGVGYFLDSCRTCDSCSKGHENYCPTLVLTSNGVDYDGATTQGGFSDVVVVNQDYVVRVPDTLPPDGAAPLLCAGVTVYSPMMQYGLNAPGKHLGVVGLGGLGHMAVKFGKAFGMKVTVISSSLRKREEALDRLGADDFLVSSDAEQMKAAAGAMDGIIDTVSAGHPIVPLLELLRPMGQMVVCGAPSEPLQLPAYAVITGGKRIAGNGVGSVRDCQAMLDFAGEHGITADVEVVKMDYVNTAVERLERNDVRYRFVIDVAGSLQQGGAA
B3: enzyme (Lacticaseibacillus casei, UniProt A0A120HUS7); chain MEKSPLKIGILNVMHDKADTKTRLQHVLTHTAIPVDLHFYYPMTHYAGRTVPEAVSSILDPLDIHEVATMDGFIITGSPIETLEFDQVHYIAEVRTLLKTLSQHVPNQLYLCWGGMVALNYFFGISKLILPHKLFGVYPQTILEPHPLLKGLKNDFKSPHARYAEMDVRGIHADPRLTINATTTKGKLFMVTEPTDTQTFVFSHIEYDRWGLDSEYKREVAAHPEIDYVRAKHYYHHKNDYDHPKFNWKKTQRTIFDNWIQHVADHRNDNH
B4: enzyme (Mortierella alpina, UniProt U5Y3C6); chain MAPPNTIDAGLTQRHISTSAPNSAKPAFERNYQLPEFTIKEIRECIPAHCFERSGLRGLCHVAIDLTWASLLFLAATQIDKFENPLIRYLAWPVYWIMQGIVCTGVWVLAHECGHQSFSTSKTLNNTVGWILHSMLLVPYHSWRISHSKHHKATGHMTKDQVFVPKTRSQVGLPPKENAAAAVQEEDMSVHLDEEAPIVTLFWMVIQFLFGWPAYLIMNASGQDYGRWTSHFHTYSPIFEPRNFFDIIISDLGVLAALGALIYASMQLSLLTVTKYYIVPYLFVNFWLVLITFLQHTDPKLPHYREGAWNFQRGALCTVDRSFGKFLDHMFHGIVHTHVAHHLFSQMPFYHAEEATYHLKKLLGEYYVYDPSPIVVAVWRSFRECRFVEDQGDVVFFKK
B5: enzyme (Caballeronia cordobensis, UniProt P0DXY1); chain MTTASSDPLLQPFTLKHLVLKNRVMSTSHASRLTRDEFPQEVYQRYHEEKAKGGLALTMFGGSSNVSLDSPNTFQQINLSADAVVPHLRRFSDRIHTHGAALMCQITHLGRRGDAYTEPWLPMIAPSPVRETLHRAMPQAIHDADIKRVIRDFGLAAKRCRDGGLDGIETHAGGHLIGQFMDPTVNLRTDKYGGSTANRVRFAIEVHEEIRKQVGDDFVVGFRFALEDGCSFEEGLEMSRILQGTGLFDFFNVTFGRMDTKMALAVNSMPGMFVPSAPWLPKAAAFKRAVDLPVFHAAKIADLATARYAIREGLLDMVGMTRAHIAEPHLVKLVEAGKEDEARPCVGASFCRNFRATCIHNPATSRETYLTHDIPKAAQTKRVLIVGAGPAGLEAARICATRGHDVTVLEANSTAGGQLLLAATGSWRRDLIGIVDWRVSALERLSVDVRYNHYAELSDVLDHGADVVIIATGGLPNLDALPGAEHCKSVFDALTETPPREGSVIVYDGTGRHNAYLCAERYVDAGLDVSLALIDSMPAQETGGRGDDQVWMRNIARWDVPVRTNIELIEVTASSNGKRRAVFQHHLTNERVELEADHVVVERGMLAVEDLFEAARMYSANDGYTDLEAFATGKPQPGHEAEEGQFHLYRIGDASASRDIHTAIYDAYRLCLAL
B6: UGT1A9 (Homo sapiens, UniProt O60656); chain GKLLVVPMDGSHWFTMRSVVEKLILRGHEVVVVMPEVSWQLGRSLNCTVKTYSTSYTLEDLDREFKAFAHAQWKAQVRSIYSLLMGSYNDIFDLFFSNCRSLFKDKKLVEYLKESSFDAVFLDPFDNCGLIVAKYFSLPSVVFARGILCHYLEEGAQCPAPLSYVPRILLGFSDAMTFKERVRNHIMHLEEHLLCHRFFKNALEIASEILQTPVTEYDLYSHTSIWLLRTDFVLDYPKPVMPNMIFIGGINCHQGKPLPMEFEAYINASGEHGIVVFSLGSMVSEIPEKKAMAIADALGKIPQTVLWRYTGTRPSNLANNTILVKWLPQNDLLGHPMTRAFITHAGSHGVYESICNGVPMVMMPLFGDQMDNAKRMETKGAGVTLNVLEMTSEDLENALKAVINDKSYKENIMRLSSLHKDRPVEPLDLAVFWVEFVMRHKGAPHLRPAAHDLTWYQYHSLDVIGFLLAVVLTVAFITFKCCAYGYRKCLGKKGRVKKAHKSKTH
B7: GulLO5 (Arabidopsis thaliana, UniProt O81030); chain TPPEDPVKCVSGNTNCIVTNSLGAFPDRSTCRAANVAYPTTEAELVSIVAAATKAGRKMRVTTRYSHSIPKLTCTDGNDGLFISTKFLNHTVQADAKAMTLTVESGVTLRQLIAEAAKVGLALPYAPYWWGVTVGGMMGTGAHGSSLWGKGSAVHDYVTEIRMVSPGSVNDGFAKIRVLSETTTPNEFNAAKVSLGVLGVISQVTFELQPMFKRSLKYVMRNDLDFNDEALTFGKKHEFADFVWLPSQGKVVYRMDDRVAVNTLGNGLYDFFPFRSQLSAVLATTRSSEETQETLRDAHGKCVTATTISSTLFSTSYGLTNNGITFTGYPVIGSQNRMMSSGSCLDGLEDKLTSACAWDSRVKGVFYHQTTFSIPLTQVKSFINDIKSLLKIDSKSLCGLELYYGILMRYVTSSPAYLGKETEAIDFDITYYRANDPLTPRLYEDFIEEIEQIALLKYNALPHWGKNRNLAFDGVIKKYKNAPAFLKVKESYDPNGLFSSEWTDQILGIKGNPTIVKDGCALEGLCICSDDAHCAPSKGYLCRPGKVYKEARVCTHVPK
B8: iodotyrosine deiodinase (Haliscomenobacter hydrossis, UniProt F4KU78); chain MKQKPAFIPYAGAQFEPEEMLSKSAEYYQFMDHRRTVREFSNRAIPLEVIENIVMTASTAPSGAHKQPWTFVVVSDPQIKAKIRQAAEKEEFESYNGRMSNEWLEDLQPFGTDWHKPFLEIAPYLIVVFRKAYDVLPDGTQRKNYYVQESVGIACGFLLAAIHQAGLVALTHTPSPMNFLQKILQRPENERPFLLVPVGYPAEGAMVPDLQRKDKAAVMVVY
B9: SUOX P168A (Homo sapiens, UniProt P51687); chain ESTHIYTKEEVSSHTSPETGIWVTLGSEVFDVTEFVDLHPGGPSKLMLAAGGPLEPFWALYAVHNQSHVRELLAQYKIGELNPEDKVAATVETSDPYADDPVRHPALKVNSQRPFNAEPPPELLTENYITPNPIFFTRNHLPVPNLDPDTYRLHVVGAPGGQSLSLSLDDLHNFPRYEITVTLQCAGNRRSEMTQVKEVKGLEWRTGAISTARWAGARLCDVLAQAGHQLCETEAHVCFEGLDSDPTGTAYGASIPLARAMDPEAEVLLAYEMNGQPLPRDHGFPVRVVVPGVVGARHVKWLGRVSVQPEESYSHWQRRDYKGFSPSVDWETVDFDSAPSIQELPVQSAITEPRDGETVESGEVTIKGYAWSGGGRAVIRVDVSLDGGLTWQVAKLDGEEQRPRKAWAWRLWQLKAPVPAGQKELNIVCKAVDDGYNVQPDTVAPIWNLRGVLSNAWHRVHVYVSP
Sequence of UniProt Q11203 (whole entry, looked up): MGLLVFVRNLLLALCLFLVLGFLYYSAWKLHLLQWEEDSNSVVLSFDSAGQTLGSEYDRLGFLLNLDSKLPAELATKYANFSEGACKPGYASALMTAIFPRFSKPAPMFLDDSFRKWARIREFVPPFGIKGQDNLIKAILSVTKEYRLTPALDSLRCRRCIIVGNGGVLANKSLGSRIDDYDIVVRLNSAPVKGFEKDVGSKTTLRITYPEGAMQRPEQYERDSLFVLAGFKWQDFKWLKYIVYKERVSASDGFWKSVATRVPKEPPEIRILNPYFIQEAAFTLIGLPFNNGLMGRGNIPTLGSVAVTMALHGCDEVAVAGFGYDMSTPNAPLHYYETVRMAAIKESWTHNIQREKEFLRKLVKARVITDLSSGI
Sequence of UniProt P42982 (whole entry, looked up): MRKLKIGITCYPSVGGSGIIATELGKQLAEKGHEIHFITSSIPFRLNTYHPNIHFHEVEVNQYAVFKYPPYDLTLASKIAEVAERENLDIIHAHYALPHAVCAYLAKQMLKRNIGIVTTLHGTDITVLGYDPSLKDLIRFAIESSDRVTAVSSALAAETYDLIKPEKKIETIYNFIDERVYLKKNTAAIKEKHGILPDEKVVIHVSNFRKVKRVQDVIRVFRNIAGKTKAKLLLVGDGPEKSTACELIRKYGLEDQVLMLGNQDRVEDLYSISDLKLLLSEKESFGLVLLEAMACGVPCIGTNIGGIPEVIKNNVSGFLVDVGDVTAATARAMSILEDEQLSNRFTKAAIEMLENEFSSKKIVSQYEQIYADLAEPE

B1 (asnB)
Km (NC(=O)CC[C@H](N)C(=O)O; pH 8, 37 °C, 100 mM NaCl, glutaminase site, together with: MgCl2; no ATP): 5000 µM

B2 (enzyme)
Km (NC(=O)c1ccc[n+]([C@@H]2O[C@H](COP(=O)(O)OP(=O)(O)OC[C@H]3O[C@@H](n4cnc5c(N)ncnc54)[C@H](OP(=O)(O)O)[C@@H]3O)[C@@H](O)[C@H]2O)c1; pH 8.8, 23 °C, cofactor varied): 66 µM

B3 (enzyme)
Km (CC(=O)SCCNC(=O)CCNC(=O)[C@H](O)C(C)(C)COP(=O)(O)OP(=O)(O)OC[C@H]1O[C@@H](n2cnc3c(N)ncnc32)[C@H](O)[C@@H]1OP(=O)(O)O; pH 7.4, 25 °C): 21 µM

ST3GAL3 (Homo sapiens, UniProt Q11203)
Km (CC(=O)N[C@H]1[C@H](O[C@H]2[C@@H](O)[C@@H](CO)O[C@@H](O[C@H]3[C@H](O)[C@@H](O)[C@H](Oc4ccc([N+](=O)[O-])cc4)O[C@@H]3CO)[C@@H]2O)O[C@H](CO)[C@@H](O)[C@@H]1O[C@@H]1O[C@H](CO)[C@H](O)[C@H](O)[C@H]1O; pH 6, together with: CMP-Neu5Ac): 130 µM

B4 (enzyme)
Km (CCCCCCCC/C=C\CCCCCCCC(=O)SCCNC(=O)CCNC(=O)[C@H](O)C(C)(C)COP(=O)(O)OP(=O)(O)OC[C@H]1O[C@@H](n2cnc3c(N)ncnc32)[C@H](O)[C@@H]1OP(=O)(O)O; pH 7.5, 28 °C): 5.4 µM

B5 (enzyme)
Km (NC(=O)C1=CN([C@@H]2O[C@H](COP(=O)(O)OP(=O)(O)OC[C@H]3O[C@@H](n4cnc5c(N)ncnc54)[C@H](OP(=O)(O)O)[C@@H]3O)[C@@H](O)[C@H]2O)C=CC1; pH 8, apparent, not purified, cofactor varied): 167 µM

alanine aminopeptidase (Neisseria meningitidis, UniProt Q9JYV4)
Km (CC[C@H](N)C(=O)Nc1ccc2c(CC(N)=O)cc(=O)oc2c1; pH 7.5, 37 °C): 162 µM

B6 (UGT1A9)
Km (COc1c(O)cc(O)c2c(=O)cc(-c3ccccc3)oc12; pH 7.4, 37 °C): 1.27 µM

BshA (Bacillus subtilis, UniProt P42982)
Km (O=C(O)C[C@H](O)C(=O)O; pH 7.5, 21 °C, together with: UDP-GlcNAc 0–4 mM): 54 µM

B7 (GulLO5)
Km (O=C1O[C@H]([C@@H](O)CO)[C@H](O)[C@@H]1O; pH 8, 25 °C, apparent, together with: cytochrome c 121 µM, FAD 100 µM): 33800 µM

B8 (iodotyrosine deiodinase)
Km (N[C@@H](Cc1cc(F)c(O)c(I)c1)C(=O)O; pH 7.4, 25 °C): 38 µM

B9 (SUOX P168A)
Km (O=S(O)O; pH 8, 25 °C, together with: oxidized cyt c 400 µM): 33 µM

Excerpt of the above:
B1 (asnB)
Km (NC(=O)CC[C@H](N)C(=O)O; pH 8, 37 °C, 100 mM NaCl, glutaminase site, together with: MgCl2; no ATP): 5000 µM

B7 (GulLO5)
Km (O=C1O[C@H]([C@@H](O)CO)[C@H](O)[C@@H]1O; pH 8, 25 °C, apparent, together with: cytochrome c 121 µM, FAD 100 µM): 33800 µM
